Measured values collected from several papers.
Each line is one published result; not all experiments were run side by side. Several values in a cell are separate wells, animals, samples, runs or records. ± gives the spread as reported.
CDK2 with cyclin A: Cyclin-dependent kinase 2, with cyclin A (CDK2, Homo sapiens, UniProt P24941)

With `O=P(O)(O)C(O)(Cn1ccnc1)P(=O)(O)O` the viability was 99 ± 1% (hFOB 1.19; AlamarBlue; 15 µM, 24 h; baseline: control).
`CC/C(=N\NC(=O)NCc1cccc(O)c1)c1ccc(O)c(C)c1O` gave a log ratio of -4.6 (SK-OV-3; gene expression, microarray, item: MMP1; 10 µM, 24 h; baseline: DMSO).
With `COc1cnc2cccc(N3CCc4c(cc(Cn5ccnc5C)cc4-c4cn(C)nc4C(F)(F)F)C3=O)c2c1` the EC50 was greater than 30 µM (AGS; cell growth, inhibitor; 120 h).
The EC50 of `COC[C@H](NC(=O)c1cnc(C)s1)C(=O)N[C@@H](COC)C(=O)N[C@@H](Cc1ccccc1)C(=O)[C@@]1(C)CO1` is reported as 4.46 µM (BRD4-HiBiT cells; BRD4 degradation rescue, inhibitor; 8 h, 50% degradation rescued, together with: dBET6 500 nM).
`Cn1cc(Nc2nccc(-c3ccc4c(c3)CN(C3COC3)CC[C@H]4NC(=O)c3cn(C(C)(C)C)nn3)n2)cn1`: “number of unchanged genes” 1350 (human B cells; 100 nM, 64 h, stimulation-downregulated genes, together with: CD40L, anti-IgM, IL-21).
With `O=C(/C=C/C=C/C=C/C1CCCCC1)NC1=C[C@@](O)(/C=C/C=C/C=C/C(=O)NC2=C(O)CCC2=O)[C@@H]2O[C@@H]2C1=O` the GI50 was 13.6 µM (snuc5; cell growth, inhibitor, CellTiter-Glo luminescence; 78 h; baseline: day 0 cell count).
`Cc1ccc2c(c1)C(=O)[C@]1(O)CCN(c3ccc4nc(C)ccc4c3)C1=N2.Cl` — result for protein level: “increased” (murine Trp53-/- cells; Western blot, item: cleaved PARP and γH2AX; concentration not given).
`CCn1cc(-c2cc(Cn3ccnc3)cc3c2CCN([C@H](c2cc(OC)ccn2)C2CC2)C3=O)c(C(F)(F)F)n1` has an EC50 of greater than 30 µM (CA46; cell growth, inhibitor; 120 h).
`O=C(CSc1nnc(-c2ccccc2O)n1-c1ccccc1)Nc1cccc(C(=O)O)c1` gave a Kd of greater than 100 µM (CDK2 with cyclin A).
`CCCCN1C[C@H](O)[C@@H](O)[C@@H](O)[C@H]1CO` gave an IC50 of 67.4 µM (sample E patient fibroblasts; Gb3 level lowering, LC-MS/MS, item: Gb3 d18:1/24:1; 216 h).
`Cc1cnc(NC2CCOCC2)nc1-n1cnc(C(=O)NC(CN)c2cc(F)cc(Cl)c2)c1` (stereo not drawn): “G1 phase cells” 48.5% (MINO; flow cytometry; 1 µM, 48 h).
For `C=C[C@@]1(C)CC(=O)[C@]2(O)[C@@]3(C)[C@@H](O)CCC(C)(C)[C@@H]3[C@H](O)[C@H](OC(C)=O)[C@@]2(C)O1`, the viability was 34.2% and 40.8% (MDA-MB-231 BAX/BAK siRNA knockdown; CellTiter-Glo; concentration not given; baseline: normalised luminescence).
For `CNCc1ccc(-c2[nH]c3cc(F)cc4c3c2CCNC4=O)cc1`, “AST/ALT increased incidence” read 0% (human patients; oral, 240 mg twice daily, all grades).
`CCn1cc(-c2cc(Cn3ccoc3=N)cc3c2CCN([C@@H](C)c2cc(OC)ccn2)C3=O)c(C(F)(F)F)n1` has an EC50 of 12.8 µM (HCC1833; cell growth; 120 h).
Under “fold change in expression”, `Cn1cc(-c2ccc(-c3cncc(Cl)c3N3CCC4(CCNC4=O)CC3)cc2)cn1` is recorded as -1.16 (COLO 205; microarray, item: NRF2; concentration not given, 4 h; baseline: untreated cells).
`COc1ccccc1NC(=O)CSc1nnc(-c2ccccc2Cl)n1-c1ccccc1` has a Kd of greater than 100 µM (CDK2 with cyclin A).
The EC50 of `CCOC(=O)C1=C(C)NC2=C(C(=O)OC(c3ccc(C)cc3)C2)C1c1ccccc1Cl` (stereo not drawn) is reported as greater than 20 µM (J774.A1; cytotoxicity).
For `CC(C)[C@H](NC(=O)[C@H](Cc1ccc(O)cc1)NC(=O)[C@H](Cc1ccc(O)cc1)NC(=O)[C@@H]1CCCN1C(=O)[C@H](CCC(=O)O)NC(=O)[C@H](CCC(=O)O)NC(=O)[C@H](Cc1c[nH]c2ccccc12)NC(=O)[C@@H]1CCCN1C(=O)[C@@H](NC(=O)[C@H](CCC(N)=O)NC(=O)c1ccc2c(c1)C(=O)OC21c2ccc(O)cc2Oc2cc(O)ccc21)C(C)C)C(=O)N[C@H](C(=O)N[C@@H](CCCCN)C(=O)N[C@@H](CCCCN)C(=O)N[C@@H](CO)C(=O)N[C@@H](CO)C(=O)NCC(=O)NCC(N)=O)C(C)C`, the plasma concentration was 7060 ng/mL (human, plasma; intravenous infusion, 500 mg, 1 h).

Repeated from above:
`CCn1cc(-c2cc(Cn3ccoc3=N)cc3c2CCN([C@@H](C)c2cc(OC)ccn2)C3=O)c(C(F)(F)F)n1` has an EC50 of 12.8 µM (HCC1833; cell growth; 120 h).
For `C=C[C@@]1(C)CC(=O)[C@]2(O)[C@@]3(C)[C@@H](O)CCC(C)(C)[C@@H]3[C@H](O)[C@H](OC(C)=O)[C@@]2(C)O1`, the viability was 34.2% and 40.8% (MDA-MB-231 BAX/BAK siRNA knockdown; CellTiter-Glo; concentration not given; baseline: normalised luminescence).
